# Assay results gathered from unrelated publications.
# Protocols differ between the studies behind these lines. ± gives the spread as reported.
# APP Aβ aggregates: Amyloid-beta precursor protein, Aβ aggregates (APP, Homo sapiens, UniProt P05067)
# Sequence of UniProt P05067 (whole entry, looked up): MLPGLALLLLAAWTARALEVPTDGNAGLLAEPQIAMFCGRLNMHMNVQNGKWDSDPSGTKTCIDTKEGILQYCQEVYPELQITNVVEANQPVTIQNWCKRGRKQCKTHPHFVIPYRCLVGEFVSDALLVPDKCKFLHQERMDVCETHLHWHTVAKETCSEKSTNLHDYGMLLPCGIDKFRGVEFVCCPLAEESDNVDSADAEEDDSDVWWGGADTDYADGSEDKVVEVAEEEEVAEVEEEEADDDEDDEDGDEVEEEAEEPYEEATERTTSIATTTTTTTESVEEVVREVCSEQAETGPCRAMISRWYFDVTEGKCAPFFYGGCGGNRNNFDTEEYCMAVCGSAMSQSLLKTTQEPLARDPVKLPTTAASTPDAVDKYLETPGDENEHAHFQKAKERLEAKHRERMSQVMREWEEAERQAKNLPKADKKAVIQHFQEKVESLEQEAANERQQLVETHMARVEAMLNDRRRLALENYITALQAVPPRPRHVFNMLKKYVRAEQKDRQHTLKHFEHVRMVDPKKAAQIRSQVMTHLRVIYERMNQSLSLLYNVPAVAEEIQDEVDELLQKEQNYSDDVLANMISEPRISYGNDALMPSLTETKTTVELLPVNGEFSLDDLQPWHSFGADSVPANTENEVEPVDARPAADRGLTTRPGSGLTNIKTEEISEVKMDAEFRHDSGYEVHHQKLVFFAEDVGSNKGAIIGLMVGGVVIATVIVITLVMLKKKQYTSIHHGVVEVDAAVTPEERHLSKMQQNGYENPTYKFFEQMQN
# USP3 ZnF-UBD domain: Ubiquitin carboxyl-terminal hydrolase 3, ZnF-UBD domain (USP3, Homo sapiens, UniProt Q9Y6I4)
# Sequence of UniProt Q9Y6I4 (whole entry, looked up): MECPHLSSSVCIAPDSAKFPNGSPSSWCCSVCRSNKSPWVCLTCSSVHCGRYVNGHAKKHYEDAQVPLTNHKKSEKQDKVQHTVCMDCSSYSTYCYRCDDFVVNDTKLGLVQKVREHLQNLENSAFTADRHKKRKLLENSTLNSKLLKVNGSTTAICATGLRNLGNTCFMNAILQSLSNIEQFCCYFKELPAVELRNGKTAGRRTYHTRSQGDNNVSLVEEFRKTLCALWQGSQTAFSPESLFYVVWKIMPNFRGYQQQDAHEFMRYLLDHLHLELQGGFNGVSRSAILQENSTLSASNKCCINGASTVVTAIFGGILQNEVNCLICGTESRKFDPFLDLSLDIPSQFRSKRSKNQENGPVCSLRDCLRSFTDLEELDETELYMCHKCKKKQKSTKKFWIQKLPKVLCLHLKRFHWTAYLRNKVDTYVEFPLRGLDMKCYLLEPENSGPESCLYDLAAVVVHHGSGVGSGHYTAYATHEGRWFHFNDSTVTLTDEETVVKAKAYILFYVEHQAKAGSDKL
# Ppara F272I: Peroxisome proliferator-activated receptor alpha (Ppara, Mus musculus, UniProt P23204, F272I)
# Sequence of UniProt P23204 (whole entry, unmodified, looked up): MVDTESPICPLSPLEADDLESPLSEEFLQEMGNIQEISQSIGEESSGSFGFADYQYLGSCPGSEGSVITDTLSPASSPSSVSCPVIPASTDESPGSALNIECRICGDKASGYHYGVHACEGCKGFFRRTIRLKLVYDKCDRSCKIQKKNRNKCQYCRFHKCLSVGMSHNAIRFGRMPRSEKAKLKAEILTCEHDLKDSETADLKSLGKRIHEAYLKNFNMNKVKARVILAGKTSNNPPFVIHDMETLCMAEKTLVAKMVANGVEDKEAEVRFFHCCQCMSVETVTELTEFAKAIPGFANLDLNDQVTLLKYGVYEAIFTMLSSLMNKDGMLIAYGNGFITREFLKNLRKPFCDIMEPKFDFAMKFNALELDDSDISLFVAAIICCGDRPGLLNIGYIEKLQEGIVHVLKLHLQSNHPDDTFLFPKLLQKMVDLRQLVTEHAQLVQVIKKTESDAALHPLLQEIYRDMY
# EZH1 in PRC2 complex: Histone-lysine N-methyltransferase EZH1, in PRC2 complex (EZH1, Homo sapiens, UniProt Q92800)
# Sequence of UniProt Q92800 (whole entry, looked up): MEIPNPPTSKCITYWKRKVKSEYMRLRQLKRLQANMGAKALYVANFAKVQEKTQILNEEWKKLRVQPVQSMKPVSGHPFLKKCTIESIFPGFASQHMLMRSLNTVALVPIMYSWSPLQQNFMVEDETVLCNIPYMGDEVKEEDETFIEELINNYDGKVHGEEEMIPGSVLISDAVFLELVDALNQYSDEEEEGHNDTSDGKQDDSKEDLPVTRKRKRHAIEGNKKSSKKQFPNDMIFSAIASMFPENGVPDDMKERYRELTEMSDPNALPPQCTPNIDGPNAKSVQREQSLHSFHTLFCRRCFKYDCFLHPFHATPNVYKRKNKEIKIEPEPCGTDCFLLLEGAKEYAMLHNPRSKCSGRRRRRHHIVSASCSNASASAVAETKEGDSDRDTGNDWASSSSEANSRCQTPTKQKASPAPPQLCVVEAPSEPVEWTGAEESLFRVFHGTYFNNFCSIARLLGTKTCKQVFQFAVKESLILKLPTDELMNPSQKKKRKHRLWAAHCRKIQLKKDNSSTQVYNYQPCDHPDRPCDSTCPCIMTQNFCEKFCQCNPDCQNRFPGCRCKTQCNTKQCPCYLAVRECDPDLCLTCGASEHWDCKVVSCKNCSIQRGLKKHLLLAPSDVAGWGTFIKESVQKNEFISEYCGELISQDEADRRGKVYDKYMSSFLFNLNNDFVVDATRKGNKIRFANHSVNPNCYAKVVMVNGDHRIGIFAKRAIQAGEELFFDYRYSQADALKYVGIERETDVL
# Sequence of UniProt O15244 (whole entry, looked up): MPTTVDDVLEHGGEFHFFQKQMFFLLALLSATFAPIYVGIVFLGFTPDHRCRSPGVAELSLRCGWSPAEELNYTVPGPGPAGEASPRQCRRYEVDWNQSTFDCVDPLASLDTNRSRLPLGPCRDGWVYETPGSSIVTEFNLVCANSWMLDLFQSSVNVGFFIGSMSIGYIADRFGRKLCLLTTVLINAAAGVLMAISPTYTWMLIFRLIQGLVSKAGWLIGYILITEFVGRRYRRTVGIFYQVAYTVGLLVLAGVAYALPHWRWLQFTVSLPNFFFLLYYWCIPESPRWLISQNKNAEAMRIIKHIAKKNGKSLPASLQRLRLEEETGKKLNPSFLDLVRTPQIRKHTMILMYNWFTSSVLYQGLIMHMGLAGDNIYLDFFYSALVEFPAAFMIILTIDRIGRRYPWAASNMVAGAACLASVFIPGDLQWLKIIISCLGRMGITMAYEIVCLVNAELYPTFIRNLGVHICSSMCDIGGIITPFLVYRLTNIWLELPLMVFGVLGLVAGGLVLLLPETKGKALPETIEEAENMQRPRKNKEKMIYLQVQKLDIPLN
# Sequence of UniProt P46098 (whole entry, looked up): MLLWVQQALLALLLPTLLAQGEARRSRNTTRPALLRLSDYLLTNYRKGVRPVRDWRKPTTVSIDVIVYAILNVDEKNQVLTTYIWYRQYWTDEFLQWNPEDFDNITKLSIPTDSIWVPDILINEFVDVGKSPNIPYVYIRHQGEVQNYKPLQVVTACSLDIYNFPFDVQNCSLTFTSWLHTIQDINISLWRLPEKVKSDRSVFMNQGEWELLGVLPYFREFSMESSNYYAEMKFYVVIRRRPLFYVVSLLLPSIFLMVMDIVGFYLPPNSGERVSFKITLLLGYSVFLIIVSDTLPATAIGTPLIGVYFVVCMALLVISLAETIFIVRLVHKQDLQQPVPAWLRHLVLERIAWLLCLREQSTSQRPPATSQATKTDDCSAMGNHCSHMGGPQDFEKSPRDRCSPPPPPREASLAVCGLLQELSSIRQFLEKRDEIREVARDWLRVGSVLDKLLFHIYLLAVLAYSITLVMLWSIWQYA
# Sequence of UniProt O60701 (whole entry, unmodified, looked up): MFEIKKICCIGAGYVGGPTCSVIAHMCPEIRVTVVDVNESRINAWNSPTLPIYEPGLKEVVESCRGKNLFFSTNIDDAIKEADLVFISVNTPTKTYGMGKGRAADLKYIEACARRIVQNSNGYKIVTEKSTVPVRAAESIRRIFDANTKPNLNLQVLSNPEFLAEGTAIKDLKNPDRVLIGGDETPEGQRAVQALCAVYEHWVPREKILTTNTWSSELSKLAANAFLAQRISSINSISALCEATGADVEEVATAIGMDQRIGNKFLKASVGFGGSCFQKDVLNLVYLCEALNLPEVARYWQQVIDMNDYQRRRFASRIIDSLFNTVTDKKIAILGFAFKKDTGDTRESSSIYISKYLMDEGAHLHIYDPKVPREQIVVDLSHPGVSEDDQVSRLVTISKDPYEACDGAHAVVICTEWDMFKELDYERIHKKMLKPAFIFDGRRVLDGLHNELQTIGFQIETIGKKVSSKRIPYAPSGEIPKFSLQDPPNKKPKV
# Sequence of UniProt P32901 (whole entry, looked up): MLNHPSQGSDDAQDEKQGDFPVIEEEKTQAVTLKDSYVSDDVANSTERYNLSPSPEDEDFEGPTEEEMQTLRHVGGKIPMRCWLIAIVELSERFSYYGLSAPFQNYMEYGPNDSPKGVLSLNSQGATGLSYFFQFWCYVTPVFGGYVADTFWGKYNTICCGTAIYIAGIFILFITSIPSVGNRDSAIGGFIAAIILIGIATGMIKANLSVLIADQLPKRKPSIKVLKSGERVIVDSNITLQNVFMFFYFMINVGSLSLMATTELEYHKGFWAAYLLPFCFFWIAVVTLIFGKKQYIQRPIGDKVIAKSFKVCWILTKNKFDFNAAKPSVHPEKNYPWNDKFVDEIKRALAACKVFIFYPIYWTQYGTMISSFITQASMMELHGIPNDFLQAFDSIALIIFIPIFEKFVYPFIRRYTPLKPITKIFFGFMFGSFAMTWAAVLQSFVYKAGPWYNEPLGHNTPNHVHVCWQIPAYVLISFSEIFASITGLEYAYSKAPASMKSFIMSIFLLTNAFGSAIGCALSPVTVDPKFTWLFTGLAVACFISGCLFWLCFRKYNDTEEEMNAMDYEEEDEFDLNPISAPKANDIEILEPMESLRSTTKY
Structure (SMILES),target,test,test system,conditions,endpoint,result
COc1ccc(C(=O)Nc2ccc(N3C4CCC3CN(c3cnc5ccccc5c3)C4)cc2)cc1,APP Aβ aggregates,"[3H]PiB competition binding, item: amyloid-beta",Alzheimer's disease brain homogenate,added: [3H]PiB,Ki,> 1 µM
O=C(O)CC1Oc2ccccc2NC1=O (stereo not drawn),USP3 ZnF-UBD domain,,,,Kd,> 1000 µM
COc1ccc(C(=O)Nc2ccc(N3CCCN(c4ccccn4)CC3)cc2)cc1,APP Aβ aggregates,"[3H]PiB competition binding, item: amyloid-beta",Alzheimer's disease brain homogenate,added: [3H]PiB,Ki,> 1 µM
O=c1c(O)c(-c2ccc(O)c(O)c2)oc2cc(O)cc(O)c12,"PSMB5, chymotrypsin-like activity (Oryctolagus cuniculus, UniProt G1T4Q9)","chymotrypsin-like proteasome activity, inhibitor",rabbit muscle proteasome,,Ki,< 10 µM
COc1ccc(C(=O)Nc2ccc(N3C4CCC3CN(c3ccccn3)C4)cn2)cc1,APP Aβ aggregates,"[3H]PiB competition binding, item: amyloid-beta",Alzheimer's disease brain homogenate,added: [3H]PiB,Ki,> 1 µM
C[C@H](NC(=O)[C@@H](N)Cc1c[nH]c2ccccc12)C(=O)O,"Peptide transporter PTR2 (PTR2, Saccharomyces cerevisiae, UniProt P32901)",,,,Ki,28 µM
CCCCCCCCCCCCCCCC(=O)SCCNC(=O)CCNC(=O)[C@H](O)C(C)(C)COP(=O)(O)OP(=O)(O)OC[C@H]1O[C@@H](n2cnc3c(N)ncnc32)[C@H](O)[C@@H]1OP(=O)(O)O,Ppara F272I,,,,Ki,0.018 ± 0.002 µM
CNC(=O)[C@@]12C[C@@H]1[C@@H](n1cnc3c(NC)nc(C#C[c-]4cccc4)nc31)[C@H](O)[C@@H]2O.[Fe+2].c1cc[cH-]c1,"HTR3A (Homo sapiens, UniProt P46098)",radioligand binding (PDSP),,,Ki,2.62 µM
O=c1ccn([C@@H]2O[C@H](COP(=O)(O)OP(=O)(O)O[C@H]3OC[C@@H](O)[C@H](O)[C@H]3O)[C@@H](O)[C@H]2O)c(=O)[nH]1,"UGDH (Homo sapiens, UniProt O60701, A104G)","inhibitor, steady-state kinetics",,,Ki,0.19 ± 0.2 µM
O=C(O)CCc1nccs1,USP3 ZnF-UBD domain,,,,Kd,173 µM
CC/C=C\C/C=C\C/C=C\C/C=C\C/C=C\C/C=C\CCC(=O)SCCNC(=O)CCNC(=O)[C@H](O)C(C)(C)COP(=O)(O)OP(=O)(O)OC[C@H]1O[C@@H](n2cnc3c(N)ncnc32)[C@H](O)[C@@H]1OP(=O)(O)O,Ppara F272I,,,,Ki,0.029 ± 0.003 µM
Cc1ccc([C@H]2C[C@@H]2COc2cc(NCc3nnc(C)s3)nc(C)n2)nc1,"PDE1A (Homo sapiens, UniProt P54750)","enzyme activity, inhibitor, IMAP fluorescence polarization",,added: cGMP,Ki,> 58.3 µM
CCc1nc(N)nc(N)c1-c1ccc(Cl)cc1,"SLC22A2 (Homo sapiens, UniProt O15244)",inhibitor,,,Ki,1.4 µM
COc1cc(C)[nH]c(=O)c1CN1CCc2c(Cl)cc([C@H](OC)C3COC3)c(Cl)c2C1=O,EZH1 in PRC2 complex,differential scanning fluorimetry,,"extrapolated from Tm, added: activator peptide",Ki,0.0027 µM
CCCCCC/C=C\CCCCCCCC(=O)O,Ppara F272I,,,,Ki,0.022 ± 0.003 µM
COc1ccc(C(=O)Nc2ccc(N3C4CCC3CN(c3ccccn3)C4)cc2)cc1,APP Aβ aggregates,"[3H]PiB competition binding, item: amyloid-beta",Alzheimer's disease brain homogenate,added: [3H]PiB,Ki,> 1 µM
CCCCCCCCCCCCCCCC(=O)O,Ppara F272I,,,,Ki,0.019 ± 0.002 µM
CC[C@H](C)n1cc(C)c2c(C(=O)NCc3c(C)cc(C)[nH]c3=O)cc(-c3ccc(N4CCNCC4)nc3)cc21,EZH1 in PRC2 complex,differential scanning fluorimetry,,"extrapolated from Tm, added: activator peptide",Ki,0.033 µM
Cc1nn(-c2nc3ccccc3[nH]2)c(O)c1C(c1ccccn1)c1c(C)nn(-c2nc3ccccc3[nH]2)c1O,"Cyclic GMP-AMP synthase, catalytic domain; with DNA (CGAS, Homo sapiens, UniProt Q8N884)","liquid-liquid phase separation, inhibitor",,,EC50,8.67 µM
CC/C=C\C/C=C\C/C=C\C/C=C\C/C=C\C/C=C\CCC(=O)O,Ppara F272I,,,,Ki,0.017 ± 0.002 µM
Oc1ccc(N=Nc2ccc(-c3nc4ccccc4s3)cc2)c(O)c1,"Amyloid-beta precursor protein, Aβ40 fibrils (APP, Homo sapiens, UniProt P05067)","binding to Aβ fibrils, thioflavin T competition",,"Aβ 5 µM, added: ThT 2 µM",Ki,0.21 µM

# A few entries again:
Structure (SMILES),target,test,test system,conditions,endpoint,result
CCCCCCCCCCCCCCCC(=O)O,Ppara F272I,,,,Ki,0.019 ± 0.002 µM
Cc1ccc([C@H]2C[C@@H]2COc2cc(NCc3nnc(C)s3)nc(C)n2)nc1,"PDE1A (Homo sapiens, UniProt P54750)","enzyme activity, inhibitor, IMAP fluorescence polarization",,added: cGMP,Ki,> 58.3 µM
